# Experimental data from different studies.
# Each line is one published result; not all experiments were run side by side.
# Method: steady-state kinetics
# B1: GTPBP3 P257H (Homo sapiens, UniProt Q969Y2); chain TRRSSGAPAPGSGATIFALSSGQGRCGIAVIRTSGPASGHALRILTAPRDLPLARHASLRLLSDPRSGEPLDRALVLWFPGPQSFTGEDCVEFHVHGGPAVVSGVLQALGSVPGLRPAEAGEFTRRAFANGKLNLTEVEGLADLIHAETEAQRRQALRQLDGELGHLCRGWAETLTKALAHVEAYIDFGEDDNLEEGVLEQADIEVRALQVALGAHLRDARRGQRLRSGVHVVVTGHPNAGKSSLVNLLSRKPVSIVSPEPGTTRDVLETPVDLAGFPVLLSDTAGLREGVGPVEQEGVRRARERLEQADLILAMLDASDLASPSSCNFLATVVASVGAQSPSDSSQRLLLVLNKSDLLSPEGPGPGPDLPPHLLLSCLTGEGLDGLLEALRKELAAVCGDPSTDPPLLTRARHQHHLQGCLDALGHYKQSKDLALAAEALRVARGHLTRLTGGGGTEEILDIIFQDFCVGK
# B2: ERAP1 K528R (Homo sapiens, UniProt Q9NZ08); chain MVFLPLKWSLATMSFLLSSLLALLTVSTPSWCQSTEASPKRSDGTPFPWNKIRLPEYVIPVHYDLLIHANLTTLTFWGTTKVEITASQPTSTIILHSHHLQISRATLRKGAGERLSEEPLQVLEHPRQEQIALLAPEPLLVGLPYTVVIHYAGNLSETFHGFYKSTYRTKEGELRILASTQFEPTAARMAFPCFDEPAFKASFSIKIRREPRHLAISNMPLVKSVTVAEGLIEDHFDVTVKMSTYLVAFIISDFESVSKITKSGVKVSVYAVPDKINQADYALDAAVTLLEFYEDYFSIPYPLPKQDLAAIPDFQSGAMENWGLTTYRESALLFDAEKSSASSKLGITMTVAHELAHQWFGNLVTMEWWNDLWLNEGFAKFMEFVSVSVTHPELKVGDYFFGKCFDAMEVDALNSSHPVSTPVENPAQIREMFDDVSYDKGACILNMLREYLSADAFKSGIVQYLQKHSYKNTKNEDLWDSMASICPTDGVKGMDGFCSRSQHSSSSSHWHQEGVDVKTMMNTWTLQRGFPLITITVRGRNVHMKQEHYMKGSDGAPDTGYLWHVPLTFITSKSDMVHRFLLKTKTDVLILPEEVEWIKFNVGMNGYYIVHYEDDGWDSLTGLLKGTHTAVSSNDRASLINNAFQLVSIGKLSIEKALDLSLYLKHETEIMPVFQGLNELIPMYKLMEKRDMNEVETQFKAFLIRLLRDLIDKQTWTDEGSVSERMLRSQLLLLACVHNYQPCVQRAEGYFRKWKESNGNLSLPVDVTLAVFAVGAQSTEGWDFLYSKYQFSLSSTEKSQIEFALCRTQNKEKLQWLLDESFKGDKIKTQEFPQILTLIGRNPVGYPLAWQFLRKNWNKLVQKFELGSSSIAHMVMGTTNQFSTRTRLEEVKGFFSSLKENGSQLRCVQQTIETIEENIGWMDKNFDKIRVWLQSEKLEHDPEADATG
# B3: ltaE H83F (Escherichia coli, UniProt P75823); chain MIDLRSDTVTRPSRAMLEAMMAAPVGDDVYGDDPTVNALQDYAAELSGKEAAIFLPTGTQANLVALLSHCERGEEYIVGQAAFNYLFEAGGAAVLGSIQPQPIDAAADGTLPLDKVAMKIKPDDIHFARTKLLSLENTHNGKVLPREYLKEAWEFTRERNLALHVDGARIFNAVVAYGCELKEITQYCDSFTICLSKGLGTPVGSLLVGNRDYIKRAIRWRKMTGGGMRQSGILAAAGIYALKNNVARLQEDHDNAAWMAEQLREAGADVMRQDTNMLFVRVGEENAAALGEYMKARNVLINASPIVRLVTHLDVSREQLAEVAAHWRAFLAR
# B4: enzyme (Bacillus pumilus, UniProt A8FFI9); chain EARSIAWSVDEFFKNREGTFVIQEVKEKSPWVYNKKRAKERFAPQSTFKVANALIGLQTGAVRDEYDIKYWDGVKREIDNWNRDHTLGSGMRDSVVWYYQAMARDIGEERMNHWVKAIHYGNKDISGGIDQFWLSSTLRISPIEQVRFLKQLYEETLPFDLKNMRTVKRMMVQEEEKHATLYGKTGSGSDIGWYVGFIKHEHKTYILATNIKGTGIEAKDITYRILKKYHLMEASV
# B5: putA E639A (Bradyrhizobium diazoefficiens, UniProt Q89E26); chain MPNIPPPFTAPYAPDDAEIAARLLPASHLSPPQEARIHRTATRLIEAIRKRDDRLGGVEDMLREFALSTKEGLALMVLAEALLRVPDARTADQFIEDKLGEGDFIHHETKSTAFLVNASAWALGLSARVIQPGETPDGTIGRLVKRLGAPAVRTATRQAMRLMGNHFVLGETIEQALERGKPRSGQKTRYSFDMLGEGARTAADARRYFDAYASAIETIGKAAGNHALPDRPGISVKLSALHPRFEAISRARVMVELVPQLLDLAQRAKAHDLNFTVDAEEADRLELSLDVIAATLADPSLKGWDGFGLAIQAYQKRASAVIDYVDALARAHDRKLMVRLVKGAYWDTEIKRAQERGLDGYPVFTRKAMTDLNYVACASKLLALRPRIFPQFATHNALTVATVLEMAEGSSGFEFQRLHGMGEALYEQLAKDHADIAYRTYAPVGSHRDLLAYLVRRLLENGANSSFVAQAADYRVPVPALLQRPADAIVRPQAAAHPRIPLPCDLFAPERRNSRGVEFGARTALDQLLTDVKAETGDLKPIADATPDQAHAAVAAARAGFAGWSRTPAGIRAAALEQAAHLLESRSAHFIALLQREGGKTLDDALSELREAADFCRYYAAQGRKLFGSETAMPGPTGASNALTMRGRGVFVAISPWNFPLAIFLGQVTAALMAGNSVVAKPAEQTPRIAREAVALLHEAGIPKSALYLVTGDGRIGAALTAHPDIAGVVFTGSTEVARSINRALAAKDGPIVPLIAETGGINAMIADATALPEQVADDVVTSAFRSAGQRCSALRLLFVQEDVADRMIEMVAGAARELKIGDPSDVATHVGPVIDVEAKQRLDAHIARMKTEARLHFAGPAPEGCFVAPHIFELTEAGQLTEEVFGPILHVVRYRPENLERVLRAIERTGYGLTLGVHSRIDDSIEAIIDRVQVGNIYVNRNMIGAVVGVQPFGGNGLSGTGPKAGGPHYLARFATEQTVTINTAAAGGNAALLAGEE
# B6: CYP6A8 (Drosophila melanogaster, UniProt Q27593); chain MALTYILFQVAVALLAILTYYIHRKLTYFKRRGIPFVAPHLIRGNMEELQKTKNIHEIFQDHYNKFRESKAPFVGFFFFQSPAAFVIDLELAKQILIKDFSNFSNKGIFYNEKDDPISAHLFNLDGAQWRLLRNKLSSTFTSGKMKLMYPTVVSVANEFMTVMHEKVPKNSVLEIRDLVARFTVDVIGTCAFGIQCNSLRDEKAEFLYFGKRSLVDKRHGTLLNGFMRSYPKLARKLGMVRTAPHIQEFYSRIVTETVAVREKEHIKRNDFMDMLIELKNQKEMTLENGDVVRGLTMEEVLAQAFVFFIAGFETSSSTMGFALYELAKNPDIQDKVRAEVEEVIEQHDQNFTYECTKDLKYLNQVLDETLRLYTIVPNLDRMAAKRYVVPGHPNFVIEAGQSVIIPSSAIHHDPSIYPEPFEFRPERFSPEESAGRPSVAWLPFGDGPRNCIGLRFGQMQARIGLALLIRNFKFSTCSKTPNPLVYDPKSFVLGVKDGIYLKVETV
# B7: enzyme (Listeria monocytogenes, UniProt Q8Y829); chain MKKVITYGTFDLLHWGHIHLLKRAKALGDYLIVAISSDEFNRIKHKEAYHSYEHRKLIIEAIRYVDEVIPENNWEQKRDDIEKYGIDVFVMGDDWEGEFDFLKDVCEVVYLPRTEGISTSQIKDELK
# B8: cyc1 F198L (Streptomyces coelicolor, UniProt Q9K499); chain MHAFPHGTTATPTAIAVPPSLRLPVIEAAFPRQLHPYWPKLQETTRTWLLEKRLMPADKVEEYADGLCYTDLMAGYYLGAPDEVLQAIADYSAWFFVWDDRHDRDIVHGRAGAWRRLRGLLHTALDSPGDHLHHEDTLVAGFADSVRRLYAFLPATWNARFARHFHTVIEAYDREFHNRTRGIVPGVEEYLELRRLTLAHWIWTDLLEPSSGCELPDAVRKHPAYRRAALLSQEFAAWYNDLCSLPKEIAGDEVHNLGISLITHHSLTLEEAIGEVRRRVEECITEFLAVERDALRFADELADGTVRGKELSGAVRANVGNMRNWFSSVYWFHHESGRYMVDSWDDRSTPPYVNNEAAGEK
# B9: HS3ST1 (Mus musculus, UniProt O35310); chain GTASNGSTQQLPQTIIIGVRKGGTRALLEMLSLHPDVAAAENEVHFFDWEEHYSQGLGWYLTQMPFSSPHQLTVEKTPAYFTSPKVPERIHSMNPTIRLLLILRDPSERVLSDYTQVLYNHLQKHKPYPPIEDLLMRDGRLNLDYKALNRSLYHAHMLNWLRFFPLGHIHIVDGDRLIRDPFPEIQKVERFLKLSPQINASNFYFNKTKGFYCLRDSGKDRCLHESKGRAHPQVDPKLLDKLHEYFHEPNKKFFKLVGRTFDWH
# UniProt Q9H015, sequence (whole entry, looked up): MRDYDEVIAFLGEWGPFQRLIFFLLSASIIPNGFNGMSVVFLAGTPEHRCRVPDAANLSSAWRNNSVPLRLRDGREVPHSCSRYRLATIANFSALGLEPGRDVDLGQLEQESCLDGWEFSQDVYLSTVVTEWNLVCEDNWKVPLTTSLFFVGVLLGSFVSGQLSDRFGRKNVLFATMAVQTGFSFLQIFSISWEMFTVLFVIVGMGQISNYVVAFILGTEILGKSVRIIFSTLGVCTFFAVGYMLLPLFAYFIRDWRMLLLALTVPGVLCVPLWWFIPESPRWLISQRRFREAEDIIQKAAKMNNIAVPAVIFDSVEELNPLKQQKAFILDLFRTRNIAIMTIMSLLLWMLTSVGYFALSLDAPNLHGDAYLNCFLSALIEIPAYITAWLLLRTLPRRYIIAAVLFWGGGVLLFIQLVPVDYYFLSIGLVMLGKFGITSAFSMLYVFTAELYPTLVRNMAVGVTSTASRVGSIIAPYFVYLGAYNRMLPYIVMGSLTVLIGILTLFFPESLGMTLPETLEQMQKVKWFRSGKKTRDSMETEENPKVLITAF
# UniProt Q6P4A8, sequence (whole entry, looked up): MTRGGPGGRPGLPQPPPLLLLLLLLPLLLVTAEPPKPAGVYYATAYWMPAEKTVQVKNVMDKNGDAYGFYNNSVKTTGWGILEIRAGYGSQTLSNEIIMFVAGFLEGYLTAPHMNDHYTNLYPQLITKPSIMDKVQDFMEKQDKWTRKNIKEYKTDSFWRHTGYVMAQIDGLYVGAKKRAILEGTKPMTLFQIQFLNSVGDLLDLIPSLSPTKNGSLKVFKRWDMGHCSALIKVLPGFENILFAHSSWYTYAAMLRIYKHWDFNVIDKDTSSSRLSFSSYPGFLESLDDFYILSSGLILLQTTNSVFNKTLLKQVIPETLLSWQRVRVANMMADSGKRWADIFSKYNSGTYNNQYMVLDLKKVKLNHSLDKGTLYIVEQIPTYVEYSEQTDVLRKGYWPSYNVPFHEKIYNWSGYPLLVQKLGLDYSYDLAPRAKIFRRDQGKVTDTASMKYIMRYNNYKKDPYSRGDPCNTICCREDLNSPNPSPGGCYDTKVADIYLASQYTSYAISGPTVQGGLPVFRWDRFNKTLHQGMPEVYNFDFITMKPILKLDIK
Substance,substrate,test system,setting,Km [µM]
B1 (GTPBP3 P257H),Nc1nc2c(ncn2[C@@H]2O[C@H](COP(=O)(O)OP(=O)(O)OP(=O)(O)O)[C@@H](O)[C@H]2O)c(=O)[nH]1,,"pH 8, 37 °C, KCl 300 mM",101
B2 (ERAP1 K528R),CC(C)C[C@H](N)C(=O)N[C@@H](CO)C(=O)N[C@@H](CCCNC(=N)N)C(=O)N[C@@H](Cc1c[nH]cn1)C(=O)N[C@@H](Cc1c[nH]cn1)C(=O)N[C@@H](C)C(=O)N[C@@H](Cc1ccccc1)C(=O)N[C@@H](CO)C(=O)N[C@@H](Cc1ccccc1)C(=O)N[C@@H](CCCNC(=N)N)C(=O)O,,25 °C,2.3
"PLBD1 self-cleaved, cathepsin L-processed (Homo sapiens, UniProt Q6P4A8)",CC[C@H](C)[C@H](N)C(=O)Nc1ccc2c(C)cc(=O)oc2c1,,"pH 4.5, 37 °C, together with: cathepsin L",32.4
B3 (ltaE H83F),C[C@H](O)[C@H](N)C(=O)O,,"pH 7, 30 °C, potassium phosphate 20 mM, retro-aldol cleavage, together with: PLP 500 µM",7000
B4 (enzyme),CC1(C)S[C@@H]2[C@H](NC(=O)[C@H](N)c3ccccc3)C(=O)N2[C@H]1C(=O)O,,pH 7,27
B5 (putA E639A),O=C(O)[C@@H]1CCCN1,,"pH 8, 23 °C",85000
B6 (CYP6A8),CCCCCCCCCC(=O)O,DLPC,"pH 7.4, 37 °C, total hydroxylation, together with: P450 reductase, NADPH",21.2
"enzyme (Pseudomonas putida, UniProt Q88P31)",NC(=O)c1ccc[n+]([C@@H]2O[C@H](COP(=O)(O)OP(=O)(O)OC[C@H]3O[C@@H](n4cnc5c(N)ncnc54)[C@H](O)[C@@H]3O)[C@@H](O)[C@H]2O)c1,,"pH 8, 30 °C",127
B7 (enzyme),O=P(O)(O)OC[C@H](O)CO,,"pH 8, 37 °C, apparent",6560
B8 (cyc1 F198L),CC(C)=CCC/C(C)=C/CC/C(C)=C/CO[P@@](=O)(O)OP(=O)(O)O,,"pH 6.5, 30 °C, together with: MgCl2 10 mM",4.2
B9 (HS3ST1),Nc1ncnc2c1ncn2[C@@H]1O[C@H](COP(=O)(O)OS(=O)(=O)O)[C@@H](OP(=O)(O)O)[C@H]1O,,"pH 7, 37 °C",13.5
"SLC22A4 (Homo sapiens, UniProt Q9H015)",Nc1ccn([C@@H]2O[C@H](CO)[C@@H](O)[C@@H]2O)c(=O)n1,,"single saturable site, not purified",1.95

# A few entries again:
Substance,substrate,test system,setting,Km [µM]
B1 (GTPBP3 P257H),Nc1nc2c(ncn2[C@@H]2O[C@H](COP(=O)(O)OP(=O)(O)OP(=O)(O)O)[C@@H](O)[C@H]2O)c(=O)[nH]1,,"pH 8, 37 °C, KCl 300 mM",101
B2 (ERAP1 K528R),CC(C)C[C@H](N)C(=O)N[C@@H](CO)C(=O)N[C@@H](CCCNC(=N)N)C(=O)N[C@@H](Cc1c[nH]cn1)C(=O)N[C@@H](Cc1c[nH]cn1)C(=O)N[C@@H](C)C(=O)N[C@@H](Cc1ccccc1)C(=O)N[C@@H](CO)C(=O)N[C@@H](Cc1ccccc1)C(=O)N[C@@H](CCCNC(=N)N)C(=O)O,,25 °C,2.3
